Measured values pooled from the literature.
Parts stem from different laboratories: compare values within a part only. Substitutions count along the parent as printed.

Set 1
Target: ATF3, bZIP domain (human)
Technique: DHFR protein complementation
Medium: yeast
Setting: single substitutions, most at no-binding floor
Baseline: wild-type JUN-FOS pair
Direction: higher = stronger binding
Starting sequence: JUN, bZIP domain (human); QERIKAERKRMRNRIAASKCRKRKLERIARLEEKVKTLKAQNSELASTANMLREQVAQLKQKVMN; partner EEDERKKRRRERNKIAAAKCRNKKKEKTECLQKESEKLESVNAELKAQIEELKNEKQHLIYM
For `K34C`, the binding fitness was -0.365 natural log.
`V56Y` has a binding fitness of -1.26 natural log.
The binding fitness of `K39R` is reported as 0.0341 natural log.
`L52V` gave a binding fitness of -0.797 natural log.
`T48P` gave a binding fitness of -1.47 natural log.
The binding fitness of `E32Q` is reported as -0.287 natural log.
`T37A` gave a binding fitness of -0.0134 natural log.
`A57M` has a binding fitness of -0.224 natural log.
The binding fitness of `R53W` is reported as -0.612 natural log.
For `A49V`, the binding fitness was -0.0754 natural log.
With `V35Q` the binding fitness was -1.07 natural log.
`T37P` has a binding fitness of -1.08 natural log.
The binding fitness of `A49R` is reported as -0.0297 natural log.
`Q41A` has a binding fitness of -0.172 natural log.
`A40P` has a binding fitness of -1.37 natural log.
For `I28V`, the binding fitness was -0.173 natural log.

Set 2
Target: ABI1, truncated, D143A, DHFR fusion (Arabidopsis thaliana)
Technique: DHFR PCA, deep sequencing
Medium: yeast
Setting: methotrexate growth selection, single substitutions
Added: (+)-ABA 58 µM
Baseline: wild-type fitted maximum
Direction: higher = stronger binding
Starting sequence: PYL1, truncated, DHFR fusion (Arabidopsis thaliana); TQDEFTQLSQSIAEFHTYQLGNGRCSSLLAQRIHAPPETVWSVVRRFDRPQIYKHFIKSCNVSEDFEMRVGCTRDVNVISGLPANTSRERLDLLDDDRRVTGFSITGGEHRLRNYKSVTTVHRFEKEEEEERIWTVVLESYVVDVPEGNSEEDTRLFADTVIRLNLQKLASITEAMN
`D48H`: “relative binding score” 30.2%.
`G102R` — result for “relative binding score”: 33.8%.
`H34M` — result for “relative binding score”: 94.5%.
`Q10N`: “relative binding score” 92.2%.
`R123V` — result for “relative binding score”: 75.3%.
Under “relative binding score”, `Q51G` is recorded as 57.6%.
For `T120I`, “relative binding score” read 7.27%.
Under “relative binding score”, `L8H` is recorded as 51.9%.
`P83K` — result for “relative binding score”: -5.2%.
For `S59K`, “relative binding score” read 74.1%.
Under “relative binding score”, `R155E` is recorded as 37.4%.
Under “relative binding score”, `R90K` is recorded as 80.6%.
`Y141I` — result for “relative binding score”: 1.38%.
Under “relative binding score”, `L20G` is recorded as 92.1%.
For `N149P`, “relative binding score” read -1%.
`R32G`: “relative binding score” 52.5%.
`Q7G` — result for “relative binding score”: 93.8%.

Set 3
Target: CCNB2, cyclin fold, Cln2 fusion (human)
Technique: yeast growth competition, sequencing
Medium: yeast
Setting: weak parent motif
Baseline: not given
Direction: higher = stronger binding
Starting sequence: RBL2 docking peptide (human); STTRRRLFVENDS
`L7Q` — result for “normalised enrichment score”: 0.344.
Under “normalised enrichment score”, `F8G` is recorded as 0.4.
`N11M` — result for “normalised enrichment score”: 0.727.
For `T3M`, “normalised enrichment score” read 0.155.
`L7G`: “normalised enrichment score” -0.437.
`R4A` — result for “normalised enrichment score”: 0.119.
For `R5K F8L`, “normalised enrichment score” read 0.112.
`D12M`: “normalised enrichment score” 0.297.
`F8L` — result for “normalised enrichment score”: 0.302.
Under “normalised enrichment score”, `R5E` is recorded as -0.376.
For `R6Q`, “normalised enrichment score” read 0.619.
`S1N`: “normalised enrichment score” 0.53.
Under “normalised enrichment score”, `R4G` is recorded as -0.577.
Under “normalised enrichment score”, `V9F` is recorded as 0.771.
For `F8H`, “normalised enrichment score” read -0.324.
`R5T` — result for “normalised enrichment score”: 0.899.
`S13T` — result for “normalised enrichment score”: 0.0182.
Under “normalised enrichment score”, `T2W` is recorded as 0.326.
Under “normalised enrichment score”, `R6M` is recorded as 0.163.
Under “normalised enrichment score”, `R6C` is recorded as 0.438.
Under “normalised enrichment score”, `R5V` is recorded as 0.0855.
`F8Q` — result for “normalised enrichment score”: 0.469.
`R6Y`: “normalised enrichment score” -0.289.
For `T2E`, “normalised enrichment score” read 0.339.
Under “normalised enrichment score”, `R4Q` is recorded as -0.195.

Set 4
Target: Histone acetyltransferase KAT6A, winged helix 1, GST fusion (KAT6A, Homo sapiens, UniProt Q92794, residues 1-85)
Technique: protein binding microarray
Form: double-stranded DNA, one strand shown
Medium: in vitro
Tested at: not given
Setting: 8-mer, flanks averaged, mean of 2 arrays, mostly near background
Baseline: not given
Direction: higher = stronger binding
Target sequence (chain): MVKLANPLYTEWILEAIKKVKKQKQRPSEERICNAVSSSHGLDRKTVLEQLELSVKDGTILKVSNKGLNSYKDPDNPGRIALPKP
`CTGTTACC` gave an E-score of -0.0138.
`CCTGTAAG` has an E-score of -0.175.
`ACGGGACA` has an E-score of 0.258.
With `AGTCATTC` the E-score was -0.147.
`ATACTTAC` has an E-score of -0.145.
The E-score of `GAGGAGAA` is reported as -0.279.
With `AAGCTCCA` the E-score was -0.19.
For `CTAATCAC`, the E-score was -0.133.
`ACCGCGCC` has an E-score of 0.402.
For `TGCGTACA`, the E-score was 0.0291.
`AGATCCTG` has an E-score of -0.176.
The E-score of `CCATGCAG` is reported as -0.153.
For `GCTCGCCC`, the E-score was 0.0842.
With `AGCCATAT` the E-score was -0.14.
With `AAGCTAGG` the E-score was -0.111.
With `GACAAAAA` the E-score was -0.156.
With `CATGAGTC` the E-score was -0.0984.
`GAGTTACC` has an E-score of -0.108.
With `CAGTGGCA` the E-score was -0.175.
`CGGTTCCA` has an E-score of 0.0619.
With `CATTTATC` the E-score was -0.25.
The E-score of `CCCTGCAA` is reported as -0.0983.
With `CTCTTTTC` the E-score was -0.104.
With `GGCTAGAC` the E-score was -0.0263.
For `CTATCCTC`, the E-score was -0.195.

A few entries again (set 3):
Under “normalised enrichment score”, `R6M` is recorded as 0.163.
Under “normalised enrichment score”, `R5E` is recorded as -0.376.
`R6Y`: “normalised enrichment score” -0.289.
Under “normalised enrichment score”, `F8G` is recorded as 0.4.
`N11M` — result for “normalised enrichment score”: 0.727.
